Experimental data from different studies.
Each line is one published result; not all experiments were run side by side.
Sequence of UniProt Q86Y07 (whole entry, looked up): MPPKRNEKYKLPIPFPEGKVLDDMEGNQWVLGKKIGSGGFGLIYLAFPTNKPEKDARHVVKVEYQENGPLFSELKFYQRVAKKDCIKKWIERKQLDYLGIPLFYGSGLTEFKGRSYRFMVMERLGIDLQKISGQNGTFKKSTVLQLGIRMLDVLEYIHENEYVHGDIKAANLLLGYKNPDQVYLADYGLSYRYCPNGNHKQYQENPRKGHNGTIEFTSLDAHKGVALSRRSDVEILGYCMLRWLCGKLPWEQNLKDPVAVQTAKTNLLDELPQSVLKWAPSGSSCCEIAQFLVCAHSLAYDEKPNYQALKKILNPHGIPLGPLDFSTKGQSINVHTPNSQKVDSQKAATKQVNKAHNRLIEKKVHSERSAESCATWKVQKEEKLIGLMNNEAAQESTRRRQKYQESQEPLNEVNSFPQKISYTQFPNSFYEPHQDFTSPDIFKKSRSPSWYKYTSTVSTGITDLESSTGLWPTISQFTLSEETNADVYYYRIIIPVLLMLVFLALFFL
Sequence of UniProt Q15208 (whole entry, looked up): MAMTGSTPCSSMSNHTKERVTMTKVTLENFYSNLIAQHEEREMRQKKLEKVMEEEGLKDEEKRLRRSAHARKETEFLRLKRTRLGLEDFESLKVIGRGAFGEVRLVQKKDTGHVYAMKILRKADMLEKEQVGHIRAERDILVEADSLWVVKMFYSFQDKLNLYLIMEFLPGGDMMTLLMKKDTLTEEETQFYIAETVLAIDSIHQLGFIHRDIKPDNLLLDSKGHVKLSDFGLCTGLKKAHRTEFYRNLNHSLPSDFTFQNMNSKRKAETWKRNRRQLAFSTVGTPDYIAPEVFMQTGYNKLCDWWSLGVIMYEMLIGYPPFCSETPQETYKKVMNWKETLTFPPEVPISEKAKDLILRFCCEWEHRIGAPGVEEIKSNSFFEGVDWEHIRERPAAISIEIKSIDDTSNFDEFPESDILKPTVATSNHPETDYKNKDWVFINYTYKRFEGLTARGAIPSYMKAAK
Sequence of UniProt Q16566 (whole entry, looked up): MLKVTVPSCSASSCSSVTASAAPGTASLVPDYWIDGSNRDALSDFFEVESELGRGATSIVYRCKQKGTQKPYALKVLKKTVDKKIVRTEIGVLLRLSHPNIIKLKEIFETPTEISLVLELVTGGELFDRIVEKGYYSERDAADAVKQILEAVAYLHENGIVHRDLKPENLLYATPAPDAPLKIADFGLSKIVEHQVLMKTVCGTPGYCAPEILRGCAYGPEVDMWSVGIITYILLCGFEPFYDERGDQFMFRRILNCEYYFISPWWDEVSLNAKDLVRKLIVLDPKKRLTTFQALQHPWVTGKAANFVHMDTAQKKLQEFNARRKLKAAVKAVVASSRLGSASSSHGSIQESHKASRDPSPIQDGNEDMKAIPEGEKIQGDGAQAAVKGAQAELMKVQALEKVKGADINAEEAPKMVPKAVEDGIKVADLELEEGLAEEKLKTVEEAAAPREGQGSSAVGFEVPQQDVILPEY
Sequence of UniProt Q2M2I8 (whole entry, looked up): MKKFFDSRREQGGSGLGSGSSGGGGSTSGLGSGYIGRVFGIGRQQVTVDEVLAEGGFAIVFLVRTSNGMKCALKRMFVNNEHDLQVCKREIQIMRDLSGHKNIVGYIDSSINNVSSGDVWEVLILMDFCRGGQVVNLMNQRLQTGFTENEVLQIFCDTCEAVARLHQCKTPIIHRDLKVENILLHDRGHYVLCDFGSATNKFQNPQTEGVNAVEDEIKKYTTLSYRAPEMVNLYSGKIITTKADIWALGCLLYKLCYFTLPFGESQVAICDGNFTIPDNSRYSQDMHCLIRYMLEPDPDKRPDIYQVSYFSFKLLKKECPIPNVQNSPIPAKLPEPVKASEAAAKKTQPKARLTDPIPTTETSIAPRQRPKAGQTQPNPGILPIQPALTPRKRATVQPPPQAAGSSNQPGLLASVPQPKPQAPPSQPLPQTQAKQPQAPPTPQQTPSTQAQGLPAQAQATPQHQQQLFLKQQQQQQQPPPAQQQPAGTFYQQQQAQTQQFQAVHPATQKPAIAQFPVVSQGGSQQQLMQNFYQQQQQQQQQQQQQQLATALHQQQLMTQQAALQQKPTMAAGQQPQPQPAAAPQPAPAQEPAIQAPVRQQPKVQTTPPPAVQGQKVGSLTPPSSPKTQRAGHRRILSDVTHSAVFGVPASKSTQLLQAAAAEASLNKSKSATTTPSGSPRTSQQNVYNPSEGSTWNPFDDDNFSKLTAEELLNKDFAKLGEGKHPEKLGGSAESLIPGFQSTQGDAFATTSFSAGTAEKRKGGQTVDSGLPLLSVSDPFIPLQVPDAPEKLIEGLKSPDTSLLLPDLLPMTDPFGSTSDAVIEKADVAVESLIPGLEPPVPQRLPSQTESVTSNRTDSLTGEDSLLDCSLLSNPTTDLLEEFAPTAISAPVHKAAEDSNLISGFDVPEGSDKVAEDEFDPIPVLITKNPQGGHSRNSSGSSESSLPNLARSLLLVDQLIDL

SMILES	tested on	test	conditions	endpoint	result
C=CC(=O)N1CCC(COCC(=O)N2CCN(c3nc(-c4cnc(N)nc4C(F)F)nc(N4CCOC[C@@H]4C)n3)CC2)CC1	STK38 (Homo sapiens, UniProt Q15208)	binding, competition with immobilised ligand	1 µM	remaining binding	92%
O=C(Nc1ccccc1)Nc1ccc(Oc2nc3ccccc3n3cnnc23)cc1	MDA-MB-231	cell growth or viability, MTT	12.5 µM, 24 h	viability	83.6%
CCCOc1ccc2c(C)c(CC)c(=O)oc2c1C	MDA-MB-231	cell growth or viability, MTT	500 µg/mL	viability	12.2%
NC(=O)C1CCCN1C(=O)Nc1ccccc1/N=c1\cc(-c2ccc3c(c2)OCCO3)oc2cc(F)ccc12 (stereo not drawn)	MDA-MB-231	cell growth or viability, CCK-8	1 µM	inhibition	8.63%
COc1cc(-c2cncc3c2CN(C)Cc2cc(N4CCNCC4)ccc2-3)cc(OC)c1OC	AAK1 (Homo sapiens, UniProt Q2M2I8)	enzyme activity, inhibitor	1 µM	remaining activity	95%
NCCC(=O)Nc1ccccc1/N=c1\cc(-c2ccc3nc(N)oc3c2)oc2ccc(O)cc12	MDA-MB-231	cell growth or viability, CCK-8	1 µM	inhibition	30.8%
O=C(Nc1ccc(Oc2nc3ccccc3n3cnnc23)cc1)Nc1cccc(Cl)c1	MDA-MB-231	cell growth or viability, MTT	1.56 µM, 24 h	viability	100%
CNc1ncc2c(/C=C/C(=O)N3CCC(OC)CC3)nn(Cc3cccc(C(F)(F)F)c3)c2n1	CAMK4 (Homo sapiens, UniProt Q16566)	enzyme activity, inhibitor, radiometric	1 µM	remaining activity	94%
O=C1CCCCC1=C1Sc2nc3ccc(S(=O)(=O)N4CCCC4)cc3nc2S1	MDA-MB-231	cell growth or viability, MTT	12.5 µM, 24 h	viability	34%
CCOc1ccc2c(C)c(CC)c(=O)oc2c1C	MDA-MB-231	cell growth or viability, MTT	500 µg/mL	viability	7.09%
CCOC(=O)C(C(C)=O)=C1Sc2nc3ccc(S(=O)(=O)N4CCCC4)cc3nc2S1	MDA-MB-231	cell growth or viability, MTT	6.25 µM, 24 h	viability	32.6%
CCCCC(=O)Nc1ccc(-c2ccc3ncn(CCC)c(=O)c3c2)cn1	VRK2 (Homo sapiens, UniProt Q86Y07)	binding, competition with immobilised ligand	0.5 µM	remaining binding	100%
